# Assay results pooled from the literature.
# Protocols differ between the studies behind these lines. Values joined by “and” are separate records of one study, mostly repeats; a detail may differ. ± marks the error that the study gave.
SMILES,tested on,test,system,conditions,scale,measurement,result
CNC(=O)CC[C@H](Cc1ccccc1)NC(=O)[C@@H](Cc1ccc(Cl)cc1Cl)NC(=O)[C@H](N)Cc1ccccc1[N+](=O)[O-],Huh-7-ACE2,CellTiter-Glo,,"1.562 µM, 48 h, unit not given",baseline: DMSO,viability,0.986 and 1.04 and 1.07
CC[C@H](C)[C@H](N)C(=O)N[C@@H](CCCNC(=N)N)C(=O)N[C@H](C(=O)N[C@@H](Cc1c[nH]c2ccccc12)C(=O)N[C@@H](Cc1ccccc1)C(=O)N[C@H](C(=O)N[C@@H](CCCCN)C(=O)N[C@H](C(=O)N[C@@H](CCCNC(=N)N)C(=O)N[C@@H](CCCCN)C(=O)N[C@@H](CCSC)C(=O)N[C@@H](CCCCN)C(=O)N[C@@H](C)C(=O)N[C@H](C(=O)N[C@@H](Cc1ccc(O)cc1)C(=O)N[C@@H](Cc1c[nH]cn1)C(=O)N[C@H](C(N)=O)[C@@H](C)O)[C@@H](C)CC)C(C)C)[C@@H](C)CC)C(C)C,rat erythrocytes,,,"200 µM, 60 min, 37 °C",,hemolysis,0.6 ± 0.4%
CC[C@H](C)[C@H](NC(=O)[C@H](C)NC(=O)[C@H](CCCCN)NC(=O)[C@H](CCCCN)NC(=O)[C@@H](N)CCCNC(=N)N)C(=O)N[C@@H](CCCCN)C(=O)N[C@@H](CC(C)C)C(=O)N[C@H](C(=O)N[C@@H](CCCCN)C(=O)N[C@@H](CCCCN)C(=O)N[C@@H](CC(C)C)C(=O)N[C@H](C(=O)N[C@@H](CCCCN)C(=O)N[C@@H](CCCCN)C(=O)N[C@@H](CC(C)C)C(=O)N[C@@H](CCCCN)C(=O)N[C@@H](CCCCN)C(=O)N[C@@H](C)C(=O)N[C@@H](CC(C)C)C(=O)N[C@@H](CCCCN)C(=O)O)C(C)C)C(C)C,HeLa,MTT,,16 mg/L,baseline: untreated,cell growth,82.6% and 77.5% and 73.7%
O=C1NC2(CC2)COc2ncc(F)cc2[C@H]2COCCN2c2ccn3ncc1c3n2,,,"Sprague-Dawley rat, male, serum","oral, 5 mg/kg/day, 4 weeks daily, end of recovery period",,creatinine,25.2 ± 2.5 µmol/L
COc1cc(/C=C/C(=O)Oc2cc(C(F)(F)F)cc(C(F)(F)F)c2)ccc1O,HaCaT,MTT,,"24 h, 10% FBS",,subcytotoxic concentration,5 µM
CC(=O)c1c(O)c(C)c(O)c2c1OC1=CC(=O)C(=C(C)NCCCC(=O)OC3OC4OC5(C)CCC6C(C)CCC(C3C)C46OO5)C(=O)C12C (stereo not shown),L6 rat skeletal myoblasts,"cytotoxicity, Alamar Blue",,,,IC50,816 nM
CNC(=O)C[C@H](Cc1ccncc1)NC(=O)[C@@H](Cc1cccc(Br)c1)NC(=O)[C@@H](N)Cc1ccsc1,Huh-7-ACE2,CellTiter-Glo,,"0.00305 µM, 48 h, unit not given",baseline: DMSO,viability,0.96 and 0.873 and 0.965
CC[C@H](C)[C@H](NC(=O)[C@H](C)NC(=O)[C@H](CCCCN)NC(=O)[C@H](CC(C)C)NC(=O)[C@@H](N)Cc1ccccc1)C(=O)N[C@@H](CCCCN)C(=O)N[C@@H](CCCCN)C(=O)N[C@@H](Cc1ccccc1)C(=O)NCC(=O)N[C@@H](CCCCN)C(=O)N[C@@H](CCC(=O)O)C(=O)N[C@@H](Cc1ccccc1)C(=O)N[C@@H](CCCCN)C(=O)N[C@@H](CCCCN)C(=O)N[C@H](C(=O)NCC(=O)N[C@@H](C)C(=O)N[C@@H](CCCCN)C(=O)N[C@@H](CC(C)C)C(=O)N[C@@H](CCCCN)C(=O)O)[C@@H](C)CC,HeLa,MTT,,64 mg/L,baseline: untreated,cell growth,96.8% and 90.4% and 93%
Oc1ccc([C@@H]2Oc3ccc(/C=C/c4cc(O)cc(O)c4)cc3[C@H]2c2cc(O)cc(O)c2)cc1,dog cells,,,1 (unit not given),,CC50,363 µM
CC(=O)NCC(=O)N[C@@H](CCCNC(=N)N)C(=O)N[C@@H](CCCCN)C(=O)N[C@@H](CCCCN)C(=O)N[C@@H](CCCNC(=N)N)C(=O)N[C@@H](CCCNC(=N)N)C(=O)N[C@@H](CCC(N)=O)C(=O)N[C@@H](CCCNC(=N)N)C(=O)N[C@@H](CCCNC(=N)N)C(=O)N[C@@H](CCCNC(=N)N)C(=O)N1CCC[C@H]1C(=O)N[C@@H](CCC(N)=O)C(N)=O,HEK-293T,subcellular fractionation LC-MS,nuclear fraction,"20 µM, 2 h",,peptide amount,0.0378 nmol and 0.0224 nmol and 0.0335 nmol
CC[C@H](C)[C@H](NC(=O)[C@@H](NC(=O)[C@H](CCCNC(=N)N)NC(=O)[C@H](CCCNC(=N)N)NC(=O)[C@@H](NC(=O)[C@H](Cc1c[nH]c2ccccc12)NC(=O)[C@H](CCCNC(=N)N)NC(=O)[C@@H](NC(=O)[C@H](CC(C)C)NC(=O)[C@H](CCCNC(=N)N)NC(=O)[C@H](CCCNC(=N)N)NC(=O)[C@@H](N)C(C)C)[C@@H](C)CC)[C@@H](C)CC)C(C)C)C(N)=O,sheep red blood cells,10% haemolysis,,"1 h, 37 °C",,minimum haemolytic concentration,85 µM
CCN(CCCCOc1ccc(CCC(=O)N2CCC(Cc3ccccc3)CC2)cc1OC)Cc1ccccc1,Caco-2 monolayer,,,"40 µM, 120 min",,efflux ratio,1.39
CC[C@H](C)[C@H](NC(=O)CN)C(=O)NCC(=O)N[C@@H](C)C(=O)N[C@H](C(=O)N[C@@H](CC(C)C)C(=O)N[C@@H](CCCCN)C(=O)N[C@H](C(=O)N[C@@H](CC(C)C)C(=O)N[C@H](C(=O)N[C@H](C(=O)NCC(=O)N[C@@H](CC(C)C)C(=O)N1CCC[C@H]1C(=O)N[C@@H](C)C(=O)N[C@@H](CC(C)C)C(=O)N[C@H](C(=O)N[C@@H](CO)C(=O)N[C@@H](Cc1c[nH]c2ccccc12)C(=O)N[C@H](C(=O)N[C@@H](CCCCN)C(=O)N[C@@H](CCCNC(=N)N)C(=O)N[C@@H](CCCCN)C(=O)N[C@@H](CCCNC(=N)N)C(=O)N[C@@H](CCC(N)=O)C(=O)N[C@@H](CCC(N)=O)C(N)=O)[C@@H](C)CC)[C@@H](C)CC)[C@@H](C)O)[C@@H](C)O)C(C)C)C(C)C,sheep red blood cells,10% haemolysis,,"1 h, 37 °C",,minimum haemolytic concentration,4.4 µM
CC[C@H](C)[C@H](NC(=O)[C@H](CCCNC(=N)N)NC(=O)[C@@H]1CCCN1C(=O)[C@H](CCCNC(=N)N)NC(=O)[C@H](Cc1ccccc1)NC(=O)[C@H](Cc1c[nH]cn1)NC(=O)[C@H](CCCNC(=N)N)NC(=O)[C@H](CC(C)C)NC(=O)[C@H](CCCCN)NC(=O)CNC(=O)[C@H](CC(C)C)NC(=O)[C@H](Cc1ccccc1)NC(=O)[C@H](CCCNC(=N)N)NC(=O)CNC(=O)[C@H](Cc1ccccc1)NC(=O)[C@H](CCCNC(=N)N)NC(=O)CNC(=O)[C@H](CCCNC(=N)N)NC(=O)[C@H](CCC(N)=O)NC(=O)[C@@H](NC(=O)[C@@H](N)CC(C)C)[C@@H](C)CC)C(=O)N[C@@H](CCCCN)C(=O)N[C@@H](Cc1ccccc1)C(=O)N[C@@H](CCCCN)C(=O)NCC(=O)N[C@@H](CCCCN)C(=O)N[C@@H](C)C(=O)NCC(=O)N[C@@H](Cc1c[nH]c2ccccc12)C(=O)N[C@H](C(=O)N[C@H](C(=O)NCC(=O)O)C(C)C)[C@@H](C)O,rat erythrocytes,haemolysis,,"1 h, 37 °C, 2% erythrocytes in PBS",,HC50,3.23 log10 µg/mL
CC[C@H](C)[C@@H]1NC(=O)[C@H](C(C)C)NC(=O)[C@H](C(C)C)NC(=O)[C@H](CC(C)C)NC(=O)C[C@@H](C(=O)N[C@@H](Cc2c[nH]c3ccccc23)C(=O)N[C@@H](CC(N)=O)C(=O)N[C@@H](C)C(=O)N2CCC[C@H]2C(=O)NCC(=O)N[C@@H](Cc2c[nH]c3ccccc23)C(=O)N[C@@H](Cc2ccccc2)C(=O)O)NC(=O)[C@H](C)NC(=O)[C@H](CCC(N)=O)NC(=O)[C@H](C(C)C)NC1=O,MCF7,,,10 µM,,cytotoxicity,not toxic
CN(C)CCCNC(=O)[C@@H]1NC(=O)[C@@H]2Cc3ccc(cc3)Oc3cc4cc(c3O)-c3ccc5c(c[nH]c5c3)C[C@@H](NC(=O)C(NC(=O)CCCCCN)c3ccc(O)cc3)C(=O)N[C@H](c3ccc(O)cc3)C(=O)N[C@H]4C(=O)N[C@@H](C(=O)N2C)c2ccc(cc2)Oc2cc1ccc2O (stereo partly shown),human red blood cells,,PBS,"128 µg/mL, 1 h, pH 7.4, 37 °C",,hemolysis,0% and 2.84%
